Measured values collected from several papers.
Compare with care: the assays were run in different laboratories.
abrB full length assumed: abrB full length assumed (Bacillus licheniformis, UniProt Q65PI4)
lysM 1-142: lysM 1-142 (Sulfolobus solfataricus, UniProt Q980W9)
Sequence of UniProt Q980W9 (whole entry, looked up): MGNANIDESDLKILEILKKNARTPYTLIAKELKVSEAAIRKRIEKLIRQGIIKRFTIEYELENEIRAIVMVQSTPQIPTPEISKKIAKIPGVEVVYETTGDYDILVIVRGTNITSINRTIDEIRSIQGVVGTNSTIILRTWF
SNU13: SNU13 1-128 (Homo sapiens, UniProt P55769)
Sequence of UniProt P55769 (whole entry, looked up): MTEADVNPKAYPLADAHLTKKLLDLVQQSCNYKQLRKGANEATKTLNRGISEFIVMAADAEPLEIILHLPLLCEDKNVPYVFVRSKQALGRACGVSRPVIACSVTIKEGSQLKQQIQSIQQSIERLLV
B1: UGT1A9 (Homo sapiens, UniProt O60656); chain GKLLVVPMDGSHWFTMRSVVEKLILRGHEVVVVMPEVSWQLGRSLNCTVKTYSTSYTLEDLDREFKAFAHAQWKAQVRSIYSLLMGSYNDIFDLFFSNCRSLFKDKKLVEYLKESSFDAVFLDPFDNCGLIVAKYFSLPSVVFARGILCHYLEEGAQCPAPLSYVPRILLGFSDAMTFKERVRNHIMHLEEHLLCHRFFKNALEIASEILQTPVTEYDLYSHTSIWLLRTDFVLDYPKPVMPNMIFIGGINCHQGKPLPMEFEAYINASGEHGIVVFSLGSMVSEIPEKKAMAIADALGKIPQTVLWRYTGTRPSNLANNTILVKWLPQNDLLGHPMTRAFITHAGSHGVYESICNGVPMVMMPLFGDQMDNAKRMETKGAGVTLNVLEMTSEDLENALKAVINDKSYKENIMRLSSLHKDRPVEPLDLAVFWVEFVMRHKGAPHLRPAAHDLTWYQYHSLDVIGFLLAVVLTVAFITFKCCAYGYRKCLGKKGRVKKAHKSKTH
Sequence of UniProt Q1LUM3 (whole entry, looked up): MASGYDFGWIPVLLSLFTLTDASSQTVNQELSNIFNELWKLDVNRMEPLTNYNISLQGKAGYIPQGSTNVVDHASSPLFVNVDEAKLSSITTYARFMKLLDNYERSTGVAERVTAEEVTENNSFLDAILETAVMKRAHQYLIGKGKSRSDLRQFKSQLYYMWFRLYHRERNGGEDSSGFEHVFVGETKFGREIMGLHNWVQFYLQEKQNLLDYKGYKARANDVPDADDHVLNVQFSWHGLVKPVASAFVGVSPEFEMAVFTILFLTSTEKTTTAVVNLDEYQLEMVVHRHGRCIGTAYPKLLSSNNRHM

`B1 (UGT1A9)` gave a Vmax of 0.000258 µmol/min/mg (COc1cc(/C=C/C(O)=C/C(=O)/C=C/c2ccc(O)cc2)ccc1O; steady-state kinetics; pH 7.4, 37 °C).
For `TCTTGAGCATTTGGGCTGGAATGAGGCGGCCGACCTTGTCATTAAATCAATGGAGAAAACAATCGCATCCAAAGTCGTCACATACGATTTCGCTCGTTTGATGGACGGCGCGACTGAAGTCAAATGCTCTGAATTCGGTGATGAGCTTATCAAAAACATGTCTTAAACGGCTGTTTTGGGGTAAAACAAACAACAATTAAAAGGGGTAGAAAAAATGGGAAAGAAGCGAAATAAAGTATCTGTCATCGGAGCGGGTTTTACAGG (dsDNA)`, binding read “binds” (abrB full length assumed; EMSA; double-stranded DNA, one strand shown).
`ACATAATGTCACCAGCAGGTAAAAAGTAACTTTGGTTCTGGACAATATGGCCGATGTGTTGAAAACGCAACACATCGGCCTTTTGTGGCGTCTGCGGCCTGCATAATGGAAAAATAGTGAGTTCATTCATTTGAGTAATTGGATTAATCGTTTATATCTAGCAGACAAGAAAACATTTTTTTAATTTAATAAATAGGTAATACGCCAATGGTTAAG (dsDNA (Dickeya zeae); blunt)`: binding “binds” (ihfA 1-99 (Dickeya zeae, UniProt D2BZB1); EMSA; double-stranded DNA, one strand shown).
For `AAATCGTATCGGCTCCAAACGATTTTGAAAGCTGATTTACTTGTAAAATCATCATGATCTTTCACCTCTTGTCTGCTATTTTAAGTGTAGCCTATCACCGCGCAGTCAGCAAACAATTAAGTGAAGTCTGGAAGATTTTAGCCAAAGAAAAAGACAGATTGAAAAAAATAGTGTATGATCATTATAAGGAGAGTTAAGAACATGAATGAGTTTACACATTTTAATGAACAAGGCAGAGCCA (dsDNA)`, binding read “binds” (abrB full length assumed; EMSA; double-stranded DNA, one strand shown).
Under binding, `AACTGCAGGAAATTCTACTGTAAAGTATGGTTCCCAATTTATTATATTCTATTATCATGAAACTATCTCTTAAGTTCGGAAATCAAACCTCATATTAACGCCAATCAAAACTAATTACTAAATAGTCTATGAAATTTATGAATAGTTTTTAATCAATGCCTTCAACAATAGAAAGGGATCCCG (dsDNA)` is recorded as “binds” (lysM 1-142; Cu-OP in-gel footprinting; double-stranded DNA, one strand shown).
`GGGAUGUUAAAGAUGAGCGGGUGGCAGCGACAGAGCCAAAAUCAGAGCUGGAACCUGAGGAGAGAGUGUUCAAGAAGGAAGUGUAUCUUCAUACAUCACCACACCUG (structured RNA (Homo sapiens); stem-loop nt 72-91)` — result for binding: “binds” (endouc 23-309 (Danio rerio, UniProt Q1LUM3); EMSA).
`GGGAUCGUCAGGUGGGAUAAUCCUUACCUGUUCCUCCUCCGGAGGGCAGAUUAGAACAUGAUGAUUGGAGAUGCAUGAAACGUGAUUAACGUCUCUGCGUAAUCAGGACUUGCAACACCCUGAUUGCUCCUGUCUGAUU (structured RNA)`: binding “binds” (SNU13; EMSA; 100 nM, added: Mg2+ 1.5 mM).
`CTATTTCTCCTGGTAAGGAATCATCTGGTACATTTACATCATTACCACATATTGGACATTTTAATAGTACCATGATGGATCGAATAGAAATATAAAGTAAGCAGTTGAAAAGCTTTTATGAAATAAAAGGTTCGAAATTAGTACCAAACTCTAAGCACTATAGTACTGTTTGTACTTATAACGCCCTG (dsDNA)` — result for binding: “binds” (lysM 1-142; EMSA; double-stranded DNA, one strand shown).
For `GGGAUCGUCAGGUGGGAUAAUCCUUACCUGUUCCUCCUCCGGAGGGCAGAUUAGAACAUGGUGAUUGGAGAUGCAUGAAACGUGAUUAACGUCUCUGCGUAAUCAGGACUUGCAACACCCUGAUUGCUCCUGUCUGAUU (structured RNA)`, binding read “no binding” (SNU13; EMSA; added: Mg2+ 1.5 mM).
For `GGACATATTTTTGTTGCCTACGGAATGAAAGACTCGCATCGGTCATCAAATACGCTCCTGATGTGAAAATTTTAAATCTATCTTACGATTACGGTAAACTAGGCGGTCTGACCATTTTACAGAACGTAGTGTTCTGCTCAAGACTTCACACAGTCCGAAAATTCTTGGGCCGGTGATCTGTCTGTCGCCTGCAAATATGGGGTTTTCAAAGGATTTTAACAGAGGACTGGTCATTATGATAACCGCTATGAAAACCTTAT (dsDNA)`, binding read “binds” (abrB full length assumed; EMSA; double-stranded DNA, one strand shown).

Excerpt of the above:
`B1 (UGT1A9)` gave a Vmax of 0.000258 µmol/min/mg (COc1cc(/C=C/C(O)=C/C(=O)/C=C/c2ccc(O)cc2)ccc1O; steady-state kinetics; pH 7.4, 37 °C).
